Experimental data collected from several papers.
Parts stem from different laboratories: compare values within a part only.

Sample 1 — technique: protein binding microarray; molecule type: double-stranded DNA, one strand shown; matrix: in vitro; concentration: not given; baseline: not given; direction: higher = stronger binding
Target: Histone acetyltransferase KAT6A, winged helix 2, GST fusion (KAT6A, Homo sapiens, UniProt Q92794, residues 85-181)
Notes: 8-mer, flanks averaged, mean of 2 arrays, mostly near background
Construct (chain): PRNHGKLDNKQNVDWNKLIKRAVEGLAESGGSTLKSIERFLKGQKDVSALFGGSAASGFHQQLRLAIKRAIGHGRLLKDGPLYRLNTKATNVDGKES
Strand | E-score
CGATCCGA | 0.152
ATCTCCAC | -0.0686
CAACTTCC | -0.0447
ATACTTGG | -0.0999
CCTAATCA | 0.0581
ATGACCAC | -0.0278
ATCAGGAG | 0.107
CAGTACGC | -0.044

Sample 2 — technique: protein-binding microarray; molecule type: double-stranded DNA, one strand shown; matrix: in vitro; concentration: not given; direction: higher = stronger binding
Target: Protein C-ets-1 (ETS1, Homo sapiens, UniProt P14921, residues 1-441, Y397A, full length assumed)
Notes: k-mer, scored over probes, only values ≥0.25
Construct (chain): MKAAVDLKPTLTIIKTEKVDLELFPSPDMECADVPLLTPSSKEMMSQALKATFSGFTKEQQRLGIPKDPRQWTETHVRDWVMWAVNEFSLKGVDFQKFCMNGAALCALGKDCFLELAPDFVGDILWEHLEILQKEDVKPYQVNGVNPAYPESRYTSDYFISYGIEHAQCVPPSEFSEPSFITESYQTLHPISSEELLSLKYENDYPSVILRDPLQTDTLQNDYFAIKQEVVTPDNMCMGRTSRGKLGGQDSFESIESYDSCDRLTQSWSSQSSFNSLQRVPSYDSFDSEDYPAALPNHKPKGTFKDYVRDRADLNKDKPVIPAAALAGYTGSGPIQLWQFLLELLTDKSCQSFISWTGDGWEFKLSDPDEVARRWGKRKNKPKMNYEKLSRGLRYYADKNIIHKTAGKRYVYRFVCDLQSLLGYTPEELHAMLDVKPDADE
Strand | E-score
ACCAACAT | 0.285
CGATTGCG | 0.267
ACTTCCGG | 0.49

Sample 3 — technique: protein-binding microarray; molecule type: double-stranded DNA, one strand shown; matrix: in vitro; concentration: 250 nM; notes: 60-bp whole probe; together with: salmon DNA 0.4 mg/ml; baseline: random background probes; direction: higher = stronger binding; constant ends, left off below: GCCTAGCAC … GTCTTGATTCGCTTGACGCTGCTG
Target: Interferon regulatory factor 5, full length, phosphomimetic (IRF5, Homo sapiens, UniProt Q13568-2, residues 1-514, K96S/S451D/S453D/S456D/S462D)
Strand | log fluorescence
TTAAGTATCCTTATCCTTTAGTGCTAG | 0.826 z-score
GACGGTTCCCTTTTTCTGACGTGCTAG | 0.47 z-score
TTAGGTTTCGACTATCCGTTAGTGCTA | 7.83 z-score
GACCGTATCGGGTATCGGGACGTGCTA | 3.41 z-score
GACGATATCAGTCTCGAGCCGTGCTAG | 1.07 z-score
GACGGTTTCGACTTTCAGGACGTGCTA | 6.71 z-score

Single results of other studies
Molecule | target | test | system | setting | scale | endpoint | value
PhoQ, residues 284 288 289 292 302 303 WSHMKI | PhoP, residues 12 14 15 18 19 QQAYL (Escherichia coli, UniProt P23836) | Sort-seq, item: YFP reporter | E. coli | PhoQ-PhoP variant library, together with: 10 µM Mg2+ | baseline: high Mg2+ state, higher = stronger signaling | fold induction | 13.5
